Results pooled from the literature.
Parts stem from different laboratories: compare values within a part only.

Study 1 — technique: universal PBM; form: double-stranded DNA, one strand shown; sample: in vitro; concentration: not given; direction: higher = stronger binding; endpoint: E-score
Target: Sal-like protein 4, full length isoform B (SALL4, Homo sapiens, UniProt Q9UJQ4-2, residues 1-616)
Setting: 8-mer, flanks averaged, mean of replicates
Residues (chain): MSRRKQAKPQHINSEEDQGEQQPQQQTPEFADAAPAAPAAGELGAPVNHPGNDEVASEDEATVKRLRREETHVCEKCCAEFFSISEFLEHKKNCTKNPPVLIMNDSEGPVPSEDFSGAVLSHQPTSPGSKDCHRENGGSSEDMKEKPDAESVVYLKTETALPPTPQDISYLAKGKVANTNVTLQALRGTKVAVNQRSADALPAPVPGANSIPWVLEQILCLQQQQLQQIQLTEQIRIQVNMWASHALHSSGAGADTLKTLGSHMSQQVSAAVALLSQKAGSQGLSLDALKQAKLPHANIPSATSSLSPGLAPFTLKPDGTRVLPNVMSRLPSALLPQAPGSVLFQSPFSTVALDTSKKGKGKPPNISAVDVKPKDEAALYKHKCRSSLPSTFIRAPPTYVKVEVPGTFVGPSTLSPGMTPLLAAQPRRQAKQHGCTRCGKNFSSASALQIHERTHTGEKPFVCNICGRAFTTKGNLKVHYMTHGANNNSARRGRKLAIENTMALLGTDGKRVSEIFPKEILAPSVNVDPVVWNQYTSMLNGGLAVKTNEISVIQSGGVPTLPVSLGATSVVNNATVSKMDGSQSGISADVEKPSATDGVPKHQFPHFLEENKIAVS
Oligonucleotide = CACACTTA; result = 0.148
Oligonucleotide = ACACTAGA; result = 0.139
Oligonucleotide = ACATCGCA; result = -0.158

Study 2 — technique: RNA Bind-n-Seq; form: RNA; sample: in vitro; concentration: 20 nM; setting: 6-mer, flanks averaged, single round; with: 150 mM KCl; reference: input library; direction: higher = stronger binding; endpoint: 6-mer enrichment (R)
Target: TAR DNA-binding protein 43, full length, His tag (TARDBP, Homo sapiens, UniProt Q13148, residues 1-414)
Oligonucleotide = GACCGG; result = 1.71
Oligonucleotide = CUAAGG; result = 0.991
Oligonucleotide = UGAGCA; result = 0.856
Oligonucleotide = GGGAUU; result = 1.63
Oligonucleotide = ACAGCA; result = 0.695
Oligonucleotide = AAUAUA; result = 0.705
Oligonucleotide = UGACCU; result = 0.639
Oligonucleotide = UUUCUG; result = 0.633
Oligonucleotide = GUUUAG; result = 0.835

Study 3 — technique: protein binding microarray; form: double-stranded DNA, one strand shown; sample: in vitro; concentration: not given; reference: not given; direction: higher = stronger binding; endpoint: E-score
Target: Histone acetyltransferase KAT6A, winged helix 2, GST fusion (KAT6A, Homo sapiens, UniProt Q92794, residues 85-181)
Setting: 8-mer, flanks averaged, mean of 2 arrays, mostly near background
Target sequence (chain): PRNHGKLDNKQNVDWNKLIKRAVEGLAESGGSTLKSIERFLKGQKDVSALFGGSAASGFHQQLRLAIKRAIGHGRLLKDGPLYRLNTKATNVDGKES
Oligonucleotide = ACAGACCT; result = -0.0975
Oligonucleotide = GCTCTCTA; result = 0.0248
Oligonucleotide = ACCGGCCA; result = 0.0663
Oligonucleotide = AAAGTGAG; result = 0.0653
Oligonucleotide = AAACCCTA; result = -0.0124

Single results of other studies
Substance = PhoQ, residues 284 288 289 292 302 303 SLKLQV; target = PhoP, residues 12 14 15 18 19 VQGLL (Escherichia coli, UniProt P23836); test = Sort-seq, refers to: YFP reporter; test system = E. coli; setting = PhoQ-PhoP variant library, with: 10 µM Mg2+; how to read = reference: high Mg2+ state, higher = stronger signaling; endpoint = fold induction; result = 10.2
